# Results of several laboratories.
# Compare with care: the assays were run in different laboratories. Numbers after ± are the reported error.
SMILES,cell line,assay,setting,scale,endpoint,result
Cc1nn(C)c(O)c1-c1nc2cc(Cl)c(Cl)cc2[nH]c1=O,TF-1,annexin V,"IC25, 24 h",,apoptotic cells,~15%
Fc1ccc(-c2cn(CSc3ccccc3)nn2)c(F)c1,JEG-3,"qPCR, measured: p53, HDM2, p21, MIC-1","100 µM, 6 h",relative to: vehicle,mRNA level,increased
COc1cc(CNC(=O)C[C@H](C)CCC=C(C)C)ccc1OCc1cn(-c2ccccc2Cl)nn1,IGROV-1 ovarian cancer cells,SRB,"10 µM, 48 h",,growth percent,87%
O=C(NCC1(c2nc(-c3ccccc3)cs2)CCOCC1)c1cccc(-c2noc(C(F)(F)F)n2)c1,DHL6,RNA sequencing,"3 µM, 12 h",,downregulated genes,30 genes
CC(=O)c1c(C)c2cnc(Nc3ccc(N4CCNCC4)cn3)nc2n(C2CCCC2)c1=O,CHO cells,Western blot,concentration not given,,ERK phosphorylation,no effect
COc1cc(/C=C/C(=O)/C=C(O)/C=C/c2ccc(OCC(=O)N3CCOCCOCCOCC3)c(OC)c2)ccc1OCC(=O)N1CCOCCOCCOCC1,COS-7,"cell growth or viability, SRB",5 µM,,inhibition,8.58%
COc1cc(CNC(=O)C[C@H](C)CCC=C(C)C)ccc1OCc1cn(-c2ccc(C#N)cc2)nn1,786-0,SRB,"10 µM, 48 h",,growth,96.2%
CCOC(=O)c1c(-c2ccc(C)cc2)oc2ncccc12,CRL8155,cell growth or viability,48 h,,EC50,> 50000 nM
COc1cc(CNC(=O)C[C@H](C)CCC=C(C)C)ccc1OCc1cn(-c2cccc(Cl)c2)nn1,IGROV-1 ovarian cancer cells,SRB,"10 µM, 48 h",,growth percent,95.3%
C[N+]1(CC(=O)OC2CCCCCCCCCCC2)CCCCC1,PC-3,"cell viability, CellTiter Blue",96 h,,ED20,1900 nM
O=S(=O)(CCC(F)(F)F)Nc1ccc(Oc2ncccc2-c2ccnc(N[C@H]3CCCNC3)n2)c2ccccc12,INS1 cells with Dox-inducible IRE1α,immunoblot,"20 µM, added: 5 ng/mL doxycycline",,cleaved caspase-3 level,decreased
CCCCCCCCCCCCCCCC(=O)O[C@H]1[C@H](C)O[C@@H](O[C@H]2[C@H](N(C)C)[C@@H](O)[C@H](O[C@H]3[C@@H](CC=O)C[C@@H](C)[C@@H](O[C@H]4CC[C@H](N(C)C)[C@@H](C)O4)/C=C/C=C/C[C@@H](C)OC(=O)C[C@@H](O)[C@@H]3OC)O[C@@H]2C)C[C@@]1(C)O,GES-1 and HGC-27,"cell growth, CCK-8",72 h,relative to: IC50 GES-1 over HGC-27,selectivity index,2.58
O=C([O][Ti+2][O]C(=O)c1ccc([P+]([Au-][Cl])(c2ccccc2)c2ccccc2)cc1)c1ccc([P+]([Au-][Cl])(c2ccccc2)c2ccccc2)cc1.c1cc[cH-]c1.c1cc[cH-]c1,CAKI-1 cells,ELISA,"10 µM, 6 h",,IL-6 secretion,decreased
COc1cc(CNC(=O)C[C@H](C)CCC=C(C)C)ccc1OCc1cn(-c2ccc(Cl)c(Cl)c2)nn1,MOLT-4 leukaemia cells,SRB,"10 µM, 48 h",,growth percent,68.7%
COc1ccc([C@@H]2CC(=O)c3c(O)cc(O[C@@H]4O[C@H](CO[C@@H]5O[C@@H](C)[C@H](O)[C@@H](O)[C@H]5O)[C@@H](O)[C@H](O)[C@H]4O)cc3O2)cc1O,A549,trypan blue exclusion,"100 µg/mL, 48 h",,cell count,13300 ± 630
CCC/C(=C\C1=C(C(F)(F)F)C(=O)c2ccccc2C1=O)C(=O)N(CC)CC,Pa03C cells,,"concentration not given, 6 h",,NADPH/total NADP ratio,decreased
COc1cc(CNC(=O)C[C@H](C)CCC=C(C)C)ccc1O,MDA-MB-231/ATCC,SRB,"10 µM, 48 h",,growth,79.6%
CC1(C)[C@@H](O)CC[C@]2(C)[C@H]3C(=O)C=C4[C@@H]5C[C@@](C)(C(=O)O)CC[C@]5(C)CC[C@@]4(C)[C@]3(C)CC[C@@H]12,KARPAS-299,"cell growth or viability, MTT",20 µg/mL,,inhibition,15.3%
CCn1nc2c(c1Nc1nc(-c3ccc(-n4cnc(C)c4)c(OC)n3)cs1)CCCC2,CHO APPwt/PS1 M146L,,concentration not given,relative to: untreated,Aβ38 level,~1.5 fold
CO[C@@H]1[C@@H](O[C@@H]2O[C@H](C)[C@@H](O[C@H]3C[C@@](C)(O)[C@@H](OC(=O)Cc4ccc(C(C)(C)C)cc4)[C@H](C)O3)[C@H](N(C)C)[C@H]2O)[C@@H](CC=O)C[C@@H](C)[C@@H](O[C@H]2CC[C@H](N(C)C)[C@@H](C)O2)/C=C/C=C/C[C@@H](C)OC(=O)C[C@H]1O,GES-1 and HGC-27,"cell growth, CCK-8",72 h,relative to: IC50 GES-1 over HGC-27,selectivity index,4.67
CC(C)c1cccc(C(C)C)c1-n1c(Cl)c(Cl)n(-c2c(C(C)C)cccc2C(C)C)c1=[Se].[Cl][Ag],LoVo MDR,MTT,,relative to: LoVo MDR over LoVo,resistance factor,0.8
CCC(=C(c1ccc(Cl)cc1)c1ccc(OCCCN(C)C)cc1)c1ccc(OC)cc1,UACC-62,"cell growth or viability, SRB",,,GI50,1140 nM
CCCCCCCCCC[N]1C(=O)c2cccc[n+]2[Ir]1[Cl].Cc1c(C)c(C)[c-](C)c1C,SH-SY5Y,,"concentration not given, added: MPP+",,NAD+ level,36%
CC(Cc1ccc(Cl)cc1)=C(c1ccc(Cl)cc1)c1ccc(OCCN(C)C)cc1,OVCAR-8,cell growth or viability,,,GI50,5750 nM
CC[C@H](C(=O)N1CCCC[C@H]1C(=O)O[C@H](CCc1ccc(OC)c(OC)c1)c1cccc(OCC(=O)NCCC(=O)N2CCN(CCCOc3cc4c(Nc5ccc(F)c(Cl)c5)ncnc4cc3OC)CC2)c1)c1cc(OC)c(OC)c(OC)c1,HeLa FKBP12 F36V-PTPN2 knock-in,degrader,"5 µM, 4 days",,decrease in viability,48.5%
CO[C@@H]1[C@@H](O[C@@H]2O[C@H](C)[C@@H](O[C@H]3C[C@@](C)(O)[C@@H](OC(=O)CN4CCOCC4)[C@H](C)O3)[C@H](N(C)C)[C@H]2O)[C@@H](CC=O)C[C@@H](C)[C@@H](O[C@H]2CC[C@H](N(C)C)[C@@H](C)O2)/C=C/C=C/C[C@@H](C)OC(=O)C[C@H]1O,GES-1 and HGC-27,"cell growth, CCK-8",72 h,relative to: IC50 GES-1 over HGC-27,selectivity index,1.65
Cc1ccc(NC(=O)c2c(C)oc3ccc(O)c(CN4CCCCCC4)c23)cc1,L-363,propidium iodide flow cytometry,"10 µM, 72 h",,cells in G1 phase,~85%
C=C(CC)C(=O)c1ccc(OCC(=O)NCCNC(=O)COc2ccc(C(=O)C(=C)CC)c(Cl)c2Cl)c(Cl)c1Cl,CoC1/DDP,"cell growth, CCK-8",72 h,,IC10,~800 nM
CN(C)c1cc2ccccc2c(N)n1,LX-2,"actinomycin D chase, qPCR, measured: MMP9","concentration not given, 6 h pretreatment",,mRNA stability,no effect
CC(C)(C)CCN1C[C@@H]2[C@@H](CNC(=O)c3cc(Cl)cc(Cl)c3)[C@@H]2C1,human sperm,,,,concentration abolishing motility,30 µM
Cc1cc(C)nc(NC(=S)N2CCN(c3ccc(C(F)(F)F)cn3)CC2)c1,MDA-MB-231 expressing PHGDH,,"concentration not given, serine- and glycine-free medium",,glycine concentration,decreased
COc1ccc(/C=C/C2=[N+]3C(=C(CO)c4c(C)cc(/C=C/c5ccc(OC)cc5)n4[B-]3(F)F)C(C)=C2C=O)cc1,RPE-1,resazurin,added: 645 nm light,relative to: dark over light IC50,phototoxicity index,27 ± 5
O=C(c1ccc2ccccc2c1)c1cn(-c2ccccc2)nc1C1=Nn2c(Cc3nnc4n3N=C(c3nn(-c5ccccc5)cc3C(=O)c3ccc5ccccc5c3)CS4)nnc2SC1,MCF7 cells,flow cytometry,"IC50, 48 h",,S-phase cells,39.2%
CCCc1cc2cc(-n3nc(C)c4c3CC(C)(C)CC4=O)cc(N[C@H]3CCOC3)c2c(=O)[nH]1,hiPSC cardiomyocytes,,"concentration not given, 30 min",,APD90 change,< 20%
O=Cc1c(O)ccc2ccccc12,HUVEC,"RNA sequencing, measured: RND3","75 µM, 24 h",relative to: DMSO,log2 fold change,3.03
CSCC[C@H](NC(=O)[C@@H](NC(=O)[C@H](CC(C)C)NC(=O)[C@H](CC(N)=O)NC(=O)[C@@H](NC(=O)[C@@H]1CCCN1C(=O)[C@H](CCCNC(=N)N)NC(=O)[C@@H](N)CCC(N)=O)C(C)C)[C@@H](C)O)C(=O)N[C@@H](CCCNC(=N)N)C(=O)N[C@@H](CCCNC(=N)N)C(=O)N[C@@H](CCCCN)C(=O)N[C@@H](CC(C)C)C(=O)N[C@@H](CCCNC(=N)N)C(=O)N[C@@H](CCCCN)C(=O)N[C@@H](Cc1c[nH]cn1)C(=O)N[C@@H](CC(N)=O)C(=O)N[C@H]1CSSC[C@@H](C(=O)N[C@@H](CCSC)C(=O)N2CCC[C@H]2C(=O)N[C@@H](CC(C)C)C(=O)N[C@@H](Cc2c[nH]cn2)C(=O)N[C@@H](CO)C(=O)N[C@@H](CCCNC(=N)N)C(=O)N[C@H](C(=O)N2CCC[C@H]2C(=O)N[C@@H](Cc2ccccc2)C(=O)N2CCC[C@H]2C(=O)O)C(C)C)NC(=O)[C@H](CCCNC(=N)N)NC(=O)[C@H](CCCNC(=N)N)NC(=O)[C@H](CCC(N)=O)NC(=O)[C@H](CC(C)C)NC1=O,HEK293,"β-arrestin2 recruitment, BRET",,relative to: wild type receptor,BRET signal,decreased
COc1ccc([C@@H]2CC(=O)c3c(O)cc(O[C@@H]4O[C@H](CO[C@@H]5O[C@@H](C)[C@H](O)[C@@H](O)[C@H]5O)[C@@H](O[C@H]5O[C@H](CO)[C@@H](O)[C@H](O)[C@H]5O)[C@H](O)[C@H]4O)cc3O2)cc1O,A549,"cell growth or viability, MTS","150 µg/mL, 48 h",,viability,31.2%
Cc1cc(-c2ccccc2)c2ccc3c(-c4ccccc4)cc(C)nc3c2n1.[Cl-].[Cl-].[Ru+2].c1ccc(-c2ccccn2)nc1.c1ccc(-c2ccccn2)nc1,"A549, Caco-2, HT-29, MDA-MB-231",,,relative to: dark IC50 over light IC50,phototoxicity index,2 to 11
COc1cc(CNC(=O)C[C@H](C)CCC=C(C)C)ccc1OCc1cn(-c2ccc(Br)cc2)nn1,MCF7 breast cancer cells,SRB,"10 µM, 48 h",,growth percent,60.2%
COc1ccc(CC2COC(=O)C2Cc2ccc3c(c2)OCO3)cc1OC (mixture of isomers),A2780cis,"western blot, measured: Bax","IC50, 48 h",relative to: 0 h,protein level,increased

# Excerpt of the above:
SMILES,cell line,assay,setting,scale,endpoint,result
COc1ccc([C@@H]2CC(=O)c3c(O)cc(O[C@@H]4O[C@H](CO[C@@H]5O[C@@H](C)[C@H](O)[C@@H](O)[C@H]5O)[C@@H](O[C@H]5O[C@H](CO)[C@@H](O)[C@H](O)[C@H]5O)[C@H](O)[C@H]4O)cc3O2)cc1O,A549,"cell growth or viability, MTS","150 µg/mL, 48 h",,viability,31.2%
CCCCCCCCCC[N]1C(=O)c2cccc[n+]2[Ir]1[Cl].Cc1c(C)c(C)[c-](C)c1C,SH-SY5Y,,"concentration not given, added: MPP+",,NAD+ level,36%
COc1cc(CNC(=O)C[C@H](C)CCC=C(C)C)ccc1OCc1cn(-c2ccc(Br)cc2)nn1,MCF7 breast cancer cells,SRB,"10 µM, 48 h",,growth percent,60.2%
